Values quoted from earlier work as cited in several papers.
Compare with care: the assays were run in different laboratories. ± gives the spread as reported.

COc1ccc(Nc2nc(Nc3ccc(OCC[18F])cc3)ncc2Br)cc1
tissue uptake (S180 tumour-bearing mice, blood; intravenous, 30 min): 2.19 ± 0.01 %ID/g

COc1ccc(-c2cc(-c3cc4ccccc4oc3=O)nc(Cc3ccc(F)cc3)n2)cc1
IC50 (MDA-MB-231): 2.23 µM

O=C(O)c1ccc([C@H]2C[C@H]3[C@@H](N2)[C@H](c2cccc(Cl)c2F)[C@]2(C(=O)Nc4cc(Cl)ccc42)N3CC2CC2)cc1
IC50 (SJSA-1 (TP53 wild type); cell growth): 0.471 µM

C/C=C/Cn1cc(-c2ccc(C(=O)N3CCNCC3)c(Cl)c2)n2cncc2c1=O
IC50 (EOL-1; cell growth): 1.76 µM

O=C1/C(=C\c2ccc([N+](=O)[O-])cc2)S/C(=N\c2ccccc2)N1Cc1ccccc1Cl
IC50 (HepG2): 75 µM

c1cnc2[nH]cc(C3NCCc4sccc43)c2c1 (centres unmarked)
IC50 (COLO 205; cytotoxicity): > 100 µM

Cc1ccc(S(=O)(=O)Nc2nnc(-c3ccc(Cl)cc3)s2)cc1
IC50 (WI-38): 137 ± 6.66 µM

COc1ccc(-c2cc(-c3cc4ccccc4oc3=O)nc3nc(C)[nH]c(=O)c23)cc1
IC50 (HCT-116): 6.11 ± 0.82 µM

O=C1N=C(Nc2ccccc2)S/C1=C1\C(=O)Nc2ccc([N+](=O)[O-])cc21
IC50 (MCF7): 40 ± 0.002 µM

c1ccc2c(Cc3c[nH]c4ccccc34)c[nH]c2c1
IC50 (MCF7; cell growth): 5.5 µM

c1ccc2c(c1)CCNC2c1c[nH]c2cnccc12 (centres unmarked)
IC50 (MRC-5 fibroblasts; cytotoxicity): 98.8 µM

Nc1nc2[nH]c(CCCCCCCCC(=O)N[C@@H](CCC(=O)O)C(=O)O)cc2c(=O)[nH]1
IC50 (CHO RT16 (human FRα); cell growth; no added folic acid): 0.0123 µM

O=c1oc2ccccc2cc1-c1cc(-c2ccc(Cl)cc2)nc(Cc2ccc(F)cc2)n1
IC50 (MDA-MB-231): 16.5 µM

Nc1nc2[nH]c(CCCCc3ccc(C(=O)N[C@@H](CCC(=O)O)C(=O)O)s3)cc2c(=O)[nH]1
IC50 (CHO RT16 (human FRα); cell growth; no added folic acid): 0.0018 µM

CC[C@H](C)/C=C/C=C/C=C/C(O)=C/C(=O)C(Cl)(Cl)Cl
IC50 (breast angiosarcoma cells; cell proliferation): < 1 µM

Nc1nc2[nH]c(CCCCCCCC(=O)N[C@@H](CCC(=O)O)C(=O)O)cc2c(=O)[nH]1
IC50 (CHO RT16 (human FRα); cell growth; no added folic acid): 0.0085 µM

c1ccc2c(c1)CCNC2c1c[nH]c2cccnc12 (centres unmarked)
IC50 (COLO 205; cytotoxicity): > 100 µM

CC(C)c1ccc(NC(=O)Nc2ccc(NC(=O)c3c[nH]c4ccc(Cl)cc4c3=O)cc2)cc1
IC50 (HepG2): 1.6 µM

COc1cc(-c2nc(SCc3cn(CC(=O)NC(=O)Nc4ccccn4)nn3)nc(Nc3ccc(C)cc3)c2C#N)cc(OC)c1OC
IC50 (B16-F10): 0.032 µM

O=C1NC2CCCCC2NC1c1c[nH]c2ccccc12 (centres unmarked)
IC50 (MRC-5 fibroblasts; cytotoxicity): > 100 µM

NC(=O)c1cn([C@H]2O[C@@H](CO)[C@H](O)[C@@H]2O)c2ccc(Oc3ccccc3)cc2c1=O
IC50 (K562): 76.8 µM

c1ccc2c(c1)CCCNC2c1c[nH]c2ncccc12 (centres unmarked)
IC50 (MRC-5 fibroblasts; cytotoxicity): > 100 µM

NC(=O)c1cn([C@H]2O[C@@H](CO)[C@H](O)[C@@H]2O)c2ccc(Nc3ccccc3)cc2c1=O
IC50 (K562): 64.1 µM

COc1cc2c(cc1OC)C(c1c[nH]c3ccccc13)NCC2 (centres unmarked)
IC50 (COLO 205; cytotoxicity): 47.4 µM

Nc1nc2sc(CCCc3ccc(C(=O)N[C@@H](CCC(=O)O)C(=O)O)cc3)cc2c(=O)[nH]1
IC50 (CHO PC43-10 (human RFC); cell growth): > 1 µM

c1ccc2c(c1)CCNC2c1c[nH]c2ncccc12 (centres unmarked)
IC50 (COLO 205; cytotoxicity): 64.3 µM

CCn1nccc1C1CCCN1S(=O)(=O)c1cc(C)c(C)cc1C (centres unmarked)
IC50 (human monocytes; phagocytosis of anti-D RBCs): > 5 µM

CNCCN(C)Cc1ccc(-c2ccc(C(F)(F)F)cc2)o1
IC50 (HepG2; cell viability): 34.5 µM

c1ccc2c3c([nH]c2c1)C(c1c[nH]c2ncccc12)NCC3 (centres unmarked)
IC50 (MRC-5 fibroblasts; cytotoxicity): > 100 µM

Repeated from above:
NC(=O)c1cn([C@H]2O[C@@H](CO)[C@H](O)[C@@H]2O)c2ccc(Oc3ccccc3)cc2c1=O
IC50 (K562): 76.8 µM

c1ccc2c(c1)CCCNC2c1c[nH]c2ncccc12 (centres unmarked)
IC50 (MRC-5 fibroblasts; cytotoxicity): > 100 µM

NC(=O)c1cn([C@H]2O[C@@H](CO)[C@H](O)[C@@H]2O)c2ccc(Nc3ccccc3)cc2c1=O
IC50 (K562): 64.1 µM
